Measured values from different studies.
Lines come from different studies, so protocols differ. ± marks the error that the study gave.

Compound | tested on | assay | test system | setting | how to read | measurement | result
CNC(=O)C1CCN(c2cc(C)c(F)cc2NC(=O)c2ccc(-c3cc(O)ccc3C)c(C)c2)CC1 | human EPHA2/EPHA4 | phosphorylation, inhibitor, Western blot | A673 | added: EFNA5 0.5 µg/mL | lowest concentration | inhibitory concentration | 1 µM
Cc1sc2ncn(CC(=O)N3CCCC3)c(=O)c2c1-c1cccc(Br)c1 | NMDA receptor, mouse | single-channel current, outside-out patch | cortical neurons | 50 µM, added: Ca2+ 1.25 mM |  | γ1 conductance level area | 59%
COc1cc(/C=C/c2cc(C)n[nH]2)ccc1O | glutathione peroxidase | enzyme activity | MCF7 | 25 µM, 48 h |  | inhibition | 40%
O=C1CC(c2ccoc2)c2ccc(NC(=O)c3ccccc3)cc2N1 (stereo not drawn) | recombinant aromatase CYP19 | absorption spectroscopy |  | 100 µM, no androstenedione | relative to: 416 nm | Soret peak red shift | 4 nm
CCCCCCCCCCCCCC(=O)N[C@@H](CO)C(=O)N[C@H](C(=O)N[C@@H](Cc1ccc(O)cc1)C(=O)N[C@@H](CCCNC(=N)N)C(=O)N[C@@H](CCCNC(=N)N)C(=O)NCC(=O)N[C@@H](C)C(=O)N[C@@H](CCCNC(=N)N)C(=O)N[C@@H](CCCNC(=N)N)C(=O)N[C@@H](Cc1c[nH]c2ccccc12)C(=O)N[C@@H](CCCNC(=N)N)C(=O)N[C@@H](CCCCN)C(=O)N[C@@H](CC(C)C)C(=O)O)[C@@H](C)CC | PKMζ |  | Sprague-Dawley rat, CA1 neurons, hippocampal slices | 5 µM, 1 min, added: PKMζ 10 nM in pipette |  | PKMζ-mediated AMPAR potentiation | inhibited
CCSC(=S)N1CCN(C(=O)/C=C/c2coc3ccccc3c2=O)CC1 | tomato spotted wilt virus | virus inactivation, half-leaf method | Nicotiana glutinosa | tested 31.25 to 500 µg/mL |  | EC50 | 355 ± 11.5 µg/mL
CC[C@H](C)[C@H](NC(=O)[C@H](Cc1ccccc1)NC(=O)[C@@H](NC(=O)[C@@H](NC(=O)[C@H](CC(C)C)NC(=O)[C@H](CCCCN)NC(=O)[C@@H](N)CCCCN)[C@@H](C)CC)[C@@H](C)O)C(=O)N[C@@H](CC(C)C)C(=O)N[C@@H](CCCCN)C(=O)N[C@@H](CCCCN)C(=O)N[C@H](C(=O)N[C@@H](CCCNC(=N)N)C(=O)N[C@@H](CCC(=O)O)C(=O)N[C@@H](CCCCN)C(=O)N[C@@H](CCCCN)C(=O)N[C@@H](CCCCN)C(=O)N[C@@H](CCC(=O)O)C(=O)N[C@@H](CS)C(=O)N[C@@H](CC(C)C)C(=O)N[C@H](C(=O)O)C(C)C)[C@@H](C)O | voltage-gated sodium channel | resurgent sodium current, kinetic model fit | mouse CA3 neurons | 200 µM, membrane potential -30 mV |  | rate constant kOI | 88 s⁻¹
COc1cc(CCC(C)=O)ccc1O | mAb 2-LD2 | antibody binding, indirect competitive ELISA |  | added: coating antigen hapten 3-OVA |  | IC50 | > 4 µg/mL
CC(C)(C)C(=O)Nc1ccc2[nH]c(CN3CCC(N(CCCN4CCOCC4)CC4OC(n5cnc6c(N)ncnc65)C(O)C4O)CC3)nc2c1 (stereo not drawn) | DOT1L R231Q | Western blot | H460 R231Q cells | 5 µM | relative to: untreated | H3K79me2 level | decreased
C[C@]12CC[C@@H]3c4ccc(OCC(=O)N[C@@H](CCCCNC(=O)CN5CCN(CC(=O)[O-])CCN(CC(=O)[O-])CCN(CC(=O)[O-])CC5)C(=O)O)cc4CC[C@H]3[C@@H]1CCC2=O.[68Ga+3] | estrogen receptor |  | nude mice, MCF7 xenograft, tumour | dose not given, 2.5 h post-injection, added: estradiol 200 µg co-injected | relative to: unblocked | uptake reduction by blocking | ~62%
O=C(c1ccc(F)cc1)N1CCCC(c2nc(-c3ccncc3)no2)C1 (stereo not drawn) | mGluR5 | calcium fluorescence, positive allosteric modulator | mGluR5-expressing cells | added: glutamate EC20 |  | EC50 | 1.41 ± 0.216 µM
CC[C@H](C)[C@H](NC(=O)[C@H](CC(C)C)NC(=O)[C@@H](NC(=O)[C@@H](NC(=O)[C@H](CC(C)C)NC(=O)[C@H](CCCCN)NC(=O)[C@@H](N)CCCCN)[C@@H](C)CC)[C@@H](C)O)C(=O)N[C@@H](Cc1ccccc1)C(=O)N[C@@H](CCCCN)C(=O)N[C@@H](CCCCN)C(=O)N[C@H](C(=O)N[C@@H](CCCNC(=N)N)C(=O)N[C@@H](CCC(=O)O)C(=O)N[C@@H](CCCCN)C(=O)N[C@@H](CCCCN)C(=O)N[C@@H](CCCCN)C(=O)N[C@@H](CCC(=O)O)C(=O)N[C@@H](CS)C(=O)N[C@@H](CC(C)C)C(=O)N[C@H](C(=O)O)C(C)C)[C@@H](C)O | voltage-gated sodium channel | resurgent sodium current, kinetic model fit | mouse CA3 neurons | 200 µM, membrane potential -30 mV |  | rate constant kOI | 107 s⁻¹
CC(C)C[C@H](NC(=O)[C@@H]1CCC(=O)N1)C(=O)N[C@H](C(=O)N[C@@H](Cc1ccccc1)C(=O)N[C@H](C(=O)N[C@@H](CO)C(=O)N[C@@H](CO)C(=O)N[C@@H](Cc1c[nH]c2ccccc12)C(=O)NCC(N)=O)[C@@H](C)O)[C@@H](C)O | AKHR Bombyx mori EGFP | agonist | HEK293 stable AKHR-EGFP | 10 nM, 37 °C |  | time to internalization onset | 5 min
Cc1cc(N)c2cc(NC(=O)Nc3ccc4nc(C)cc(N)c4c3)ccc2n1 | factor Xa | anticoagulant neutralization, chromogenic |  | added: fondaparinux 0.2 IU/mL, human antithrombin III |  | IC50 | 10.2 ± 0.2 µM
CC[C@H](C)[C@H](NC(=O)[C@H](Cc1ccccc1)NC(=O)[C@@H](NC(=O)[C@@H](NC(=O)[C@H](CC(C)C)NC(=O)[C@H](CCCCN)NC(=O)[C@@H](N)CCCCN)[C@@H](C)CC)[C@@H](C)O)C(=O)N[C@@H](CC(C)C)C(=O)N[C@@H](CCCNC(=N)N)C(=O)N[C@@H](CCCNC(=N)N)C(=O)N[C@H](C(=O)N[C@@H](CCCNC(=N)N)C(=O)N[C@@H](CCC(=O)O)C(=O)N[C@@H](CCCCN)C(=O)N[C@@H](CCCCN)C(=O)N[C@@H](CCCCN)C(=O)N[C@@H](CCC(=O)O)C(=O)N[C@@H](CS)C(=O)N[C@@H](CC(C)C)C(=O)N[C@H](C(=O)O)C(C)C)[C@@H](C)O | voltage-gated sodium channel | resurgent sodium current, kinetic model fit | mouse CA3 neurons | 200 µM, membrane potential -30 mV |  | rate constant kOI | 68 s⁻¹
COC(=O)C=CCCC(NC(=O)c1ccncc1C(=O)O)C(=O)NC(C(=O)N1CC(=O)CC1C(=O)NC(C(=O)NC(C(N)=O)C1CCCCC1)C1CCCCC1)C(C)(C)C (stereo not drawn) | factor XIII, rabbit | isopeptidase activity | rabbit, plasma | intravenous bolus plus infusion, dose not given |  | inhibition | > 95%
Cc1nc(C)c(C=[N+]([O-])C(C)(C)C)nc1C | mitochondrial complex I, rat |  | cerebellar granule neurons, rat | 30 µM, added: MPP+ |  | complex I activity increase | 27.2%
CC[C@H](C)[C@H](NC(=O)[C@H](C)NC(=O)[C@@H](NC(=O)[C@@H](NC(=O)[C@H](CC(C)C)NC(=O)[C@H](CCCCN)NC(=O)[C@@H](N)CCCCN)[C@@H](C)CC)[C@@H](C)O)C(=O)N[C@@H](CC(C)C)C(=O)N[C@@H](CCCCN)C(=O)N[C@@H](CCCCN)C(=O)N[C@H](C(=O)N[C@@H](CCCNC(=N)N)C(=O)N[C@@H](CCC(=O)O)C(=O)N[C@@H](CCCCN)C(=O)N[C@@H](CCCCN)C(=O)N[C@@H](CCCCN)C(=O)N[C@@H](CCC(=O)O)C(=O)N[C@@H](CS)C(=O)N[C@@H](CC(C)C)C(=O)N[C@H](C(=O)O)C(C)C)[C@@H](C)O | voltage-gated sodium channel | resurgent sodium current, kinetic model fit | mouse CA3 neurons | 200 µM, membrane potential -30 mV |  | rate constant kOB | 42 s⁻¹
COc1ccc(C(=O)c2c(C(=O)NCCCN(C)C)oc3ccc(Cl)cc3c2=O)cc1OC | human GPCRs other than GHSR | β-arrestin-2 recruitment, Tango |  | 1 µM, 320 receptors tested | relative to: baseline, maximum at any other receptor | fold activation | < 3 fold
O=C(c1ccc(F)cc1)N1CCCC(c2nc(-c3cccnc3)no2)C1 (stereo not drawn) | mGluR5 | calcium fluorescence, positive allosteric modulator | mGluR5-expressing cells | added: glutamate EC20 |  | EC50 | 5 ± 0.807 µM
COc1ccc(N2C(=O)C=CC2=O)cc1 | DPP3 (Candida albicans) | GFP fluorescence | Candida albicans, BWP17 DPP3-GFP | 0.5 µg/mL, 4 h | relative to: untreated | DPP3 expression | 1.66 fold
O=C(c1ccc(F)cc1)N1CCCC(c2nc(-c3ncccn3)no2)C1 (stereo not drawn) | mGluR5 | calcium fluorescence, positive allosteric modulator | mGluR5-expressing cells | added: glutamate EC20 | relative to: maximal glutamate response | Emax | 15%
CCCNCC(=O)O | DNA | binding, UV-vis absorption titration |  |  |  | midpoint concentration | 952 µM
CCC(=O)Oc1ccc(Cl)cc1C(=O)Nc1ccc([N+](=O)[O-])cc1Cl | androgen receptor | Western blot | CWR22Rv1 | 1 µM, 16 h |  | AR protein level | inhibited
Cc1cc(C)nc(NC(=S)N2CCN(c3ccc(C(F)(F)F)cn3)CC2)c1 | panel of other dehydrogenases | enzyme activity |  | concentration not given |  | inhibition | inactive
O=C(/C=C/c1coc2ccccc2c1=O)N1CCN(C(=S)SCc2ccccc2)CC1 | tomato spotted wilt virus | viral infection, half-leaf method | Nicotiana glutinosa | 500 µg/mL |  | curative effect | 51.9 ± 2.3%
Cn1c(=O)oc2ccc(-c3ccc(CC(C#N)NC(=O)C4CNCCCO4)c(F)c3)cc21 (stereo not drawn) | neutrophil elastase (human) | enzyme activity, inhibitor | human, whole blood | 40 mg once daily, day 31 after discontinuation, neutrophil count-normalized |  | inhibition | 65.4%
CCOCCNC(=O)N1CCC[C@H](c2n[nH]c(-c3ccccc3)n2)C1 | recombinant aromatase CYP19 | absorption spectroscopy |  | 100 µM, no androstenedione |  | Soret peak wavelength | 418 nm
CCCCCC(C)NCC(=O)O (stereo not drawn) | DNA | binding, UV-vis absorption titration |  | concentration not given |  | hypochromicity | 44.5%
O=C(Nc1ccc(C(F)(F)F)cc1Cl)c1cc(Cl)ccc1O | androgen receptor | Western blot | CWR22Rv1 | 1 µM, 16 h |  | AR protein level | inhibited

Some of these lines once more:
Compound | tested on | assay | test system | setting | how to read | measurement | result
Cc1nc(C)c(C=[N+]([O-])C(C)(C)C)nc1C | mitochondrial complex I, rat |  | cerebellar granule neurons, rat | 30 µM, added: MPP+ |  | complex I activity increase | 27.2%
CCCCCC(C)NCC(=O)O (stereo not drawn) | DNA | binding, UV-vis absorption titration |  | concentration not given |  | hypochromicity | 44.5%
